Measured values from different studies.
Every numbered part comes from another study and shows a few of its results, in no order. Substitutions count along the parent as printed.

Block 1
Target: ABI1, truncated, D143A, DHFR fusion (Arabidopsis thaliana)
Method: DHFR PCA, deep sequencing
Matrix: yeast
Notes: methotrexate growth selection, single substitutions
With: (+)-ABA 58 µM
Reference: wild-type fitted maximum
Reading: higher = stronger binding
Measurement: relative binding score
Starting sequence: PYL1, truncated, DHFR fusion (Arabidopsis thaliana); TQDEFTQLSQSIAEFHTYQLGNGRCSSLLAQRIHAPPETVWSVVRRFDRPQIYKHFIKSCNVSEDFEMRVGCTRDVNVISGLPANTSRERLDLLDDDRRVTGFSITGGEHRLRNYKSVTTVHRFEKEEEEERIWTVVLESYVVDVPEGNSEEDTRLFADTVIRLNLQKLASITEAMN; partner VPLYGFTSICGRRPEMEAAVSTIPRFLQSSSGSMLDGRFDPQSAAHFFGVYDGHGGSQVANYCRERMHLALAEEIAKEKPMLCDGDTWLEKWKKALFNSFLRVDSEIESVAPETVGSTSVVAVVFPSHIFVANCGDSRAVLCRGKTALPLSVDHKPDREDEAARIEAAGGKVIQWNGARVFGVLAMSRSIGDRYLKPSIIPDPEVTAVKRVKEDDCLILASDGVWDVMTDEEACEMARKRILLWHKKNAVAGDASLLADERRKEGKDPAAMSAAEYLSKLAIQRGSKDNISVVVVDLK
S104A: 50.8%
F157G: -2.2%
D92T: 63.8%
G81E: 2.22%
E67N: 82.4%
G81V: 15.3%
S27D: 76.5%
H34T: 69.8%
I133Y: 79.7%
D92W: 35.3%
K54F: -3.04%
P36L: 75.5%
R88E: 75.5%
E89I: -30.5%

Block 2
Target: CCNA2, cyclin fold, Cln2 fusion (human)
Method: yeast growth competition, sequencing
Matrix: yeast
Notes: strong parent motif
Reference: not given
Reading: higher = stronger binding
Measurement: normalised enrichment score
Starting sequence: ORC1 docking peptide (human); PRARKRLELGNLG; partner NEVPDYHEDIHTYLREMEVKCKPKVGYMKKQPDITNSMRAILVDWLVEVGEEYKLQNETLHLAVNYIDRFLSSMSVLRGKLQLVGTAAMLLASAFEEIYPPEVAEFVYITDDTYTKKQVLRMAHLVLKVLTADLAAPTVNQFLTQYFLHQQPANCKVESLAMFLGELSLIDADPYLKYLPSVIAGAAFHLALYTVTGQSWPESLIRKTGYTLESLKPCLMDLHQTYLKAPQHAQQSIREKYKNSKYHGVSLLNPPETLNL
P1K: 4.9
R4E: 0.95
N11Y: 5.78
A3F: 1.69
P1D: 3.74
L7Q: 1.04
E8C: 3.72
R6L: 1.92
E8P: 2.7
L9V: 2.4
G13T: 4.72
G13L: 3.54
G13N: 5
E8W: 3.23
P1F: 3.42
G13K: 5.07
L7Y: 0.252
N11P: 5.27
G13M: 6.2

Block 3
Target: RNA binding protein fox-1 homolog 2, RRM domain, GST-SBP tag (RBFOX2, Homo sapiens, UniProt O43251-10, residues 100-194)
Method: RNA Bind-n-Seq
Molecule type: RNA
Matrix: in vitro
Concentration: 365 nM
Notes: natural RNA segment, single round, ends assumed
Reference: no-protein control
Reading: higher = stronger binding
Measurement: RBNS enrichment (R)
Constant ends, left off below: GGGAGUUCUACAGUCCGACGAUC … UGGAAUUCUCGGGUGCCAA
Residues (chain): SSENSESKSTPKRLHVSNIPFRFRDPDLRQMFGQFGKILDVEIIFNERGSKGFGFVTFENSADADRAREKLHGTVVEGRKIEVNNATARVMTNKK
GAAGAGUCAGGCGAGGCCUGAUGGCUUUUAGGCCUUUCAUUCAACCAAUGUCAUUGUCCAAACAGAAGAGACUCAGGAGUCUGAGUAAAAUUGUGUUCCCUUGCCCUGAG: 0.326
ACCUUUGCUUUUUAUGGAAAGCAUUACUUUAUUUAAAGAGACAGACAAUGACGCAUUUUAAUCUACCUUUGUCUUAAUUUACAGCAGGUUUUGUAUGAAUUUUUAACCUU: 1.27
UUUAAAAGGGCGACAACUGACUCACGAGAUGGCGACCAUCUUGAGCCUAUUUGGGGAGACCUGUAUCCGUGACUUUUGUUUUUAAUAAAAAGAAAAAAAAAUCUGUUACU: 0.398
UAUUUGUAUGCUUCCCAGAGAAGCUCAUUUCAUUACAAAAGGCACAUUUUAAAGCCUGCUGAUAACUGAGGAGGGCUAAUGAGAUAGGUUUGCUCGUCUGUAAUAGUUAU: 1.55
CUGACCUUGUGCCUUAAGUCUACUAGUGCCUGAUGGAGCCACCCUCAUAGGGCUGAACCAGUGGGGCUGACGGGCCAGGUCAGCCUUGGACCCUUGAUCCUGGAGGACCC: 0.206
CACCUCCCUGGACUACUAAGCUGGAGACCUACUGGCCACAUGUCUGAAAAAAUGUUCCCUGGCUAGUGUACUCCAUUCUCUUUCCUAGUGGCUCGGGCCAGACUUCAUCC: 0.396
CCCUGCCCAGGAGCACAGCUUGCUGCUGAGGGCUGGGUGUGACCGUGUCUGCCUCUGGCUGCUGGGAGAAGCUGUUUUUCAGUUUCAGAAGCAGGCAGGACAAAGGCCAG: 1.77
AUUUAGCACGUUAUAGGAAAUUAUAAGAGAUUAUAACCAAAUGGAGCGUUAUUAACCCAAAGCAGAACAAUGGUGCCAAUUUGAUUAUUAACUUAAAAAAAUAUACACUG: 0.511
GGCUCAGGCCUUGGCCCUCUAGGCAGGGAAGCUGGACUGACCAUAUCUGCUGGGCAUCUGAUCUGCCUGCCACGAGGUCCAGACUCUUCUGCAUCCACCUAUGGCAUCUG: 0.785
CACGGAGAGAAGGCCCAUACCUUCUGGUUGCUUCAGACCUGACACCGUCCCUCAGUGAUACGUACAGCCAAAAAGGACCAACUGGCUUCUGUGCACUAGCCUGUGAUUAA: 0.61
GCCACAUCUACAUUAGCUUGAGAAGCAGAGGAUUCUGUCAACAUGUGGCCAAGGGCUGUUGGACAAAAAGCUGUGCUUAAGCAGGCAUAUAGUGUGUGUACAUCUUUCGA: 0.454
GGCCUGGGUGGGGACAUGCCUUGAGUGUGCUGGAAUGUGGGUGGAGCCUGCUUCUGGGCCACCCCUCCUGGUUCAGGGCUGUGCUCACAGCAGAUUCUUGCAGUAUCAAG: 0.434

Block 4
Target: Interferon regulatory factor 7, full length, phosphomimetic (IRF7, Homo sapiens, UniProt Q92985, residues 1-503, S101K/S471D/S472D/S475D/S476D/S477D/S483D/S484D/S487D)
Sequence of UniProt Q92985 (whole entry, unmodified, looked up): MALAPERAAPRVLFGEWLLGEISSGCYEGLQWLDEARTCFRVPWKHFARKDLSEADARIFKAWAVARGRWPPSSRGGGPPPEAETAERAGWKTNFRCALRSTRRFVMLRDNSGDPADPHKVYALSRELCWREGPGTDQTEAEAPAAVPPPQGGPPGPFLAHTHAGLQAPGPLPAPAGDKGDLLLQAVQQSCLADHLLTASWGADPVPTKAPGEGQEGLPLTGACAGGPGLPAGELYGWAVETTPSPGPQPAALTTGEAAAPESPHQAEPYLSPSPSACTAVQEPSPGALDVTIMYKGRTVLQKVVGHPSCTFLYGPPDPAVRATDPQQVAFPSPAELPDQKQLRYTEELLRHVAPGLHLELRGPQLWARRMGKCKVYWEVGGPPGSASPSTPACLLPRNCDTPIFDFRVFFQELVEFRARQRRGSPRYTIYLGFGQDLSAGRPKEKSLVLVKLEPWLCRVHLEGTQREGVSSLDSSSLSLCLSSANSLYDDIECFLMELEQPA
Method: protein-binding microarray
Molecule type: double-stranded DNA, one strand shown
Matrix: in vitro
Concentration: 250 nM
Notes: 60-bp whole probe
With: salmon DNA 0.4 mg/ml
Reference: random background probes
Reading: higher = stronger binding
Measurement: log fluorescence
Constant ends, left off below: GCCTAGCAC … GTCTTGATTCGCTTGACGCTGCTG
TCAGGTATCGGGTATCGGTTAGTGCTA: 1.8 z-score
TGGCCTCTAGGTTTTCTGGAGTGCTAG: -0.918 z-score
GACGGTTTTGGGTTTCGGGACGTGCTA: 4.08 z-score
GACGATTTAAGACTGGAGACGTGCTAG: -0.122 z-score
ATAGGACTGCTTTTCCTTTAGTGCTAG: 1.2 z-score
GACGATCGCAGACTGGAGACGTGCTAG: -0.381 z-score
GACGATTTCTGTCTCGAGACGTGCTAG: 0.46 z-score
TTTGATTTCAGTATCGATTAGTGCTAG: 1.41 z-score
TTAGGTTTCGACCATCGGTTAGTGCTA: 2.43 z-score
GACGGTATCAGTCTCGAGACGTGCTAG: 0.308 z-score
TTTTTTTTTTTTTTTTTACTGTGCTAG: 0.593 z-score
TCACAGATGTTTTTCATACTGTGCTAG: 0.184 z-score
GACGGTATCCTTATCCAGACGTGCTAG: 0.0186 z-score
GACGGTATGGACTTTCGGGACGTGCTA: -0.552 z-score
GACGATATCGGGACTGGAGACGTGCTA: -0.53 z-score
GACGGATTGGGGTTTCGGGACGTGCTA: 1.18 z-score
TCAAAATTCTAATTAGAACTGTGCTAG: 0.167 z-score
TTAGGACTGGACTATCGGTGAGTGCTA: -0.386 z-score
TCAAATTTATAAATAAAACTGTGCTAG: 0.241 z-score
CCAGTTCTGGGAAATATTTACGTGCTA: 0.0374 z-score
TCAGGTATCGACTATCGGTTAGTGCTA: 0.576 z-score
ATTGATAGTTTCACAATGCCGTGCTAG: 3.39 z-score
TCAAGAAAAAGAAAAAAAACTGTGCTA: 0.34 z-score
TTAGGTTCCCATTTCCTTTAGTGCTAG: 3.53 z-score
TTAGATCTCAGAATGGATTAGTGCTAG: 0.0582 z-score

Block 5
Target: MAFF, bZIP domain (human)
Method: DHFR protein complementation
Matrix: yeast
Notes: single substitutions, most at no-binding floor
Reference: wild-type JUN-FOS pair
Reading: higher = stronger binding
Measurement: binding fitness
Starting sequence: JUN, bZIP domain (human); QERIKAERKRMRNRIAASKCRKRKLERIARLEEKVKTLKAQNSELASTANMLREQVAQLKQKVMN; partner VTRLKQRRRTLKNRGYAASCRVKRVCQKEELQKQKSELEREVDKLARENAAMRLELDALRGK
M51P: -1.5 natural log
V56Q: -1.44 natural log
S43K: -1.52 natural log
E44P: -1.54 natural log
K39S: -1.3 natural log
I28K: -1.47 natural log
E33S: -1.49 natural log
E33I: -1.46 natural log
E44D: -1.18 natural log
L31D: -1.24 natural log
K34H: -1.27 natural log
E33P: -1.51 natural log
L52E: -1.49 natural log
V56H: -1.54 natural log
A46C: -1.51 natural log
A46G: -1.46 natural log
M51R: -1.21 natural log
L31R: -1.53 natural log
T37L: -1.23 natural log
E33T: -1.48 natural log
E44N: -1.46 natural log
A29P: -1.45 natural log
V56Y: -1.51 natural log
L31N: -1.49 natural log
T37I: -1.47 natural log

Mixed results
PhoQ, residues 284 288 289 292 302 303 GASLAW — fold induction (PhoP, residues 12 14 15 18 19 TPLRH (Escherichia coli, UniProt P23836); Sort-seq, measured: YFP reporter; E. coli; PhoQ-PhoP variant library, with: 10 µM Mg2+; reference: high Mg2+ state, higher = stronger signaling): 0.912

For quick reference, copied from above (block 3):
ACCUUUGCUUUUUAUGGAAAGCAUUACUUUAUUUAAAGAGACAGACAAUGACGCAUUUUAAUCUACCUUUGUCUUAAUUUACAGCAGGUUUUGUAUGAAUUUUUAACCUU: 1.27
CACGGAGAGAAGGCCCAUACCUUCUGGUUGCUUCAGACCUGACACCGUCCCUCAGUGAUACGUACAGCCAAAAAGGACCAACUGGCUUCUGUGCACUAGCCUGUGAUUAA: 0.61
GGCUCAGGCCUUGGCCCUCUAGGCAGGGAAGCUGGACUGACCAUAUCUGCUGGGCAUCUGAUCUGCCUGCCACGAGGUCCAGACUCUUCUGCAUCCACCUAUGGCAUCUG: 0.785
GGCCUGGGUGGGGACAUGCCUUGAGUGUGCUGGAAUGUGGGUGGAGCCUGCUUCUGGGCCACCCCUCCUGGUUCAGGGCUGUGCUCACAGCAGAUUCUUGCAGUAUCAAG: 0.434
UAUUUGUAUGCUUCCCAGAGAAGCUCAUUUCAUUACAAAAGGCACAUUUUAAAGCCUGCUGAUAACUGAGGAGGGCUAAUGAGAUAGGUUUGCUCGUCUGUAAUAGUUAU: 1.55
GAAGAGUCAGGCGAGGCCUGAUGGCUUUUAGGCCUUUCAUUCAACCAAUGUCAUUGUCCAAACAGAAGAGACUCAGGAGUCUGAGUAAAAUUGUGUUCCCUUGCCCUGAG: 0.326
CUGACCUUGUGCCUUAAGUCUACUAGUGCCUGAUGGAGCCACCCUCAUAGGGCUGAACCAGUGGGGCUGACGGGCCAGGUCAGCCUUGGACCCUUGAUCCUGGAGGACCC: 0.206
AUUUAGCACGUUAUAGGAAAUUAUAAGAGAUUAUAACCAAAUGGAGCGUUAUUAACCCAAAGCAGAACAAUGGUGCCAAUUUGAUUAUUAACUUAAAAAAAUAUACACUG: 0.511
